Experimental data gathered from unrelated publications.
A part holds a random share of what one study measured. Values joined by “and” are separate records of one study, mostly repeats; a detail may differ. Numbers after ± are the reported error.
Sequence of UniProt Q15303 (whole entry, looked up): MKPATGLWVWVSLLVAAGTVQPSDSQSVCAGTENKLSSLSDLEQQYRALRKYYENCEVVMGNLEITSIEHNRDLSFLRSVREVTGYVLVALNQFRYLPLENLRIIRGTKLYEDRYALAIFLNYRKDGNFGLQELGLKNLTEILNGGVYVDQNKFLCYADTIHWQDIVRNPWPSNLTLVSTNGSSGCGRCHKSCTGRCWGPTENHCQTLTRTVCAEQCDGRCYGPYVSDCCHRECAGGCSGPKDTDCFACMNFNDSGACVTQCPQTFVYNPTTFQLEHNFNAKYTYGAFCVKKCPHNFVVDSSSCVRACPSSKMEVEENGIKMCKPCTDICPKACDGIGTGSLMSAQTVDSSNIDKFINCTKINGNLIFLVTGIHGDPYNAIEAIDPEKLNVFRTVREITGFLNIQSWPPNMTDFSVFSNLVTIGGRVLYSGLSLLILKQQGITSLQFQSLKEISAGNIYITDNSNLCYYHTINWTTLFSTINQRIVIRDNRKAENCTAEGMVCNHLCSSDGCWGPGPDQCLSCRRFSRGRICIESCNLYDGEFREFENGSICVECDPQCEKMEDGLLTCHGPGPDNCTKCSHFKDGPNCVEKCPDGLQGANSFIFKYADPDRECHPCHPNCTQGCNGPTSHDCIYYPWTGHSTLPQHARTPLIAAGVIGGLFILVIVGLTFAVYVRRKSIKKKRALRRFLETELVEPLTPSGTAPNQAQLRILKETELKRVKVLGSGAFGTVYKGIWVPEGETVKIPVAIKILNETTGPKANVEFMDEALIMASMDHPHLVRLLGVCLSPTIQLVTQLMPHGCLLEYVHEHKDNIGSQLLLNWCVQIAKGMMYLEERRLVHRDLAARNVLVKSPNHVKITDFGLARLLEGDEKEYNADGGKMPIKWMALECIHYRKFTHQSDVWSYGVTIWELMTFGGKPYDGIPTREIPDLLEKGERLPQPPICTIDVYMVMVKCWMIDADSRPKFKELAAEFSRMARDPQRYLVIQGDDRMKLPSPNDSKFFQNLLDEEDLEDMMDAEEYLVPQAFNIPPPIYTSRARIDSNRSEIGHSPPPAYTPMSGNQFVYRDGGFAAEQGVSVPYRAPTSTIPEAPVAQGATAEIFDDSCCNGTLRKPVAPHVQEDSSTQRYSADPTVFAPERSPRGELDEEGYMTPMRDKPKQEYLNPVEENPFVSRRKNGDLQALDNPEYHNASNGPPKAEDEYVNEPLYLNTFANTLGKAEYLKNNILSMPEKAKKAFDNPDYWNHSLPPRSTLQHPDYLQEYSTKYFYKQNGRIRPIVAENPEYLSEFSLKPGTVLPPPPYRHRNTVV
Sequence of UniProt P51451 (whole entry, looked up): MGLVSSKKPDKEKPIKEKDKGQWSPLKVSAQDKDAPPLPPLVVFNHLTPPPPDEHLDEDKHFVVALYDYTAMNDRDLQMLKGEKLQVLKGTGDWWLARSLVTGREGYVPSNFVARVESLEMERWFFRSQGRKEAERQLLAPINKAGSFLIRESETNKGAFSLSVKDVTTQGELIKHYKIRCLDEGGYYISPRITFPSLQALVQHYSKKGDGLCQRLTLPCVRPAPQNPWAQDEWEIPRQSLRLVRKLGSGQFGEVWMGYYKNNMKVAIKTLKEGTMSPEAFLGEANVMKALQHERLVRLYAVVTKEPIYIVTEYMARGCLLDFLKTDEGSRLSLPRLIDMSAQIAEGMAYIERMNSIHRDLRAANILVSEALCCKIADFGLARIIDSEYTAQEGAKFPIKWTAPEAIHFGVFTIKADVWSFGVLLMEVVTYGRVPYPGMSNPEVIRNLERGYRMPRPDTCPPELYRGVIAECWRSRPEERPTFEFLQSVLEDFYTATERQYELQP
Sequence of UniProt P42680 (whole entry, looked up): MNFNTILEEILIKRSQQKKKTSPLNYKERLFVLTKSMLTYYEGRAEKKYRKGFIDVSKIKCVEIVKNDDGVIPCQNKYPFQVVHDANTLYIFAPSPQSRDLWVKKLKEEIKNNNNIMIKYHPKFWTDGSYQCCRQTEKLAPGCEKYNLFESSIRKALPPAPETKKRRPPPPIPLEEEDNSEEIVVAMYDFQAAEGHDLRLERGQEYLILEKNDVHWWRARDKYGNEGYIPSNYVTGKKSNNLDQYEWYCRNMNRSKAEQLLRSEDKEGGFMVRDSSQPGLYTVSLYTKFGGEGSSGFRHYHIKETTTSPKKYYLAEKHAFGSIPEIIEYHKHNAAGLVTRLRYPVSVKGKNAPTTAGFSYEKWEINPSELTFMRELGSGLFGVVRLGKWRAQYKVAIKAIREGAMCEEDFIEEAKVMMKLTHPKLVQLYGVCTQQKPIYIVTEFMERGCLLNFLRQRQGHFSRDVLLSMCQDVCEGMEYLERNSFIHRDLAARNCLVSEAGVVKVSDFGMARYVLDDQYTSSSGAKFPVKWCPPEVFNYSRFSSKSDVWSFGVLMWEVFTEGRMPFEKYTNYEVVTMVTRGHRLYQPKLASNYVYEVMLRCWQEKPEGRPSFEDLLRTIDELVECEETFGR
Sequence of UniProt P51813 (whole entry, looked up): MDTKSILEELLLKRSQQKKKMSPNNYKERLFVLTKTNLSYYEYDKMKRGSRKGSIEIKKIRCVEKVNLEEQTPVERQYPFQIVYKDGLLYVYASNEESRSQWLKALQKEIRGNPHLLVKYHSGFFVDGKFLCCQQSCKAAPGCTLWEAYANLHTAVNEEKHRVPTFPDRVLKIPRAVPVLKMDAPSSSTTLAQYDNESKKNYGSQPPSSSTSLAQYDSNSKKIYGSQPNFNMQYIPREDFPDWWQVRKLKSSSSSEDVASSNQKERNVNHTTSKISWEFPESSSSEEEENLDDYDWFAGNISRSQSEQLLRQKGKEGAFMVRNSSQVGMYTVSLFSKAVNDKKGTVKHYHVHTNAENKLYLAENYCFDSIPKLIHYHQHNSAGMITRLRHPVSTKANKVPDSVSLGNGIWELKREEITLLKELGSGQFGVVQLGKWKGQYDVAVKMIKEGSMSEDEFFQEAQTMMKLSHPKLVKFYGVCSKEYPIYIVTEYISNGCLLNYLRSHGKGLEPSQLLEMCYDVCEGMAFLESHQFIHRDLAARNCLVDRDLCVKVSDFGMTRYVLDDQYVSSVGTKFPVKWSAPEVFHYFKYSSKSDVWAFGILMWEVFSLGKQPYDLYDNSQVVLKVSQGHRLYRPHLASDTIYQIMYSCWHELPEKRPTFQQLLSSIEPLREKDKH

Series 1
Structure (SMILES): CN(C1COC1)C(C)(C)/C=C(\C#N)C(=O)N1CCC[C@H]1Cn1nc(-c2ccc(Oc3ccccc3)cc2F)c2c(N)ncnc21
Read-out: enzyme activity
BTK: Tyrosine-protein kinase BTK (BTK, Homo sapiens, UniProt Q06187)
Sequence of UniProt Q06187 (whole entry, looked up): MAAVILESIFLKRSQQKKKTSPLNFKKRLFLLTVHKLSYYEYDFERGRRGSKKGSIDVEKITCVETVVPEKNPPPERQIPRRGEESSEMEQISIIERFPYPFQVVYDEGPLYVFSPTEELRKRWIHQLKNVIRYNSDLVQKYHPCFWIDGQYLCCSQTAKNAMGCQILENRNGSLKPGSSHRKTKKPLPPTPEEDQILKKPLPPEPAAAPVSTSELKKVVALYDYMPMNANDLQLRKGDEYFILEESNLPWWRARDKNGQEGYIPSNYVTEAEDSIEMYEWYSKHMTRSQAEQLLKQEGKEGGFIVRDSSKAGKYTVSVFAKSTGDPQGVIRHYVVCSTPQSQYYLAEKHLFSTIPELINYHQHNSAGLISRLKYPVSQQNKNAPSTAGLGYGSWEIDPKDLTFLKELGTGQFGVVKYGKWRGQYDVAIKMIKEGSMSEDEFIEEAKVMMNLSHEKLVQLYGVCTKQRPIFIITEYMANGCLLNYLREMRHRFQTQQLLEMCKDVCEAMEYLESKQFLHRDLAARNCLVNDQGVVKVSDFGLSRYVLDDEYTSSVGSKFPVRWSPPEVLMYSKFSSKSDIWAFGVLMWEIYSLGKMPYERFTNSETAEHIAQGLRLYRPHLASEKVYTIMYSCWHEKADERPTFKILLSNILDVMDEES
BLK (Homo sapiens, UniProt P51451); inhibitor — IC50: 68 nM.
It gave 1 ± 0.2 nM for IC50 (BTK; preincubation 180 min).
TEC (Homo sapiens, UniProt P42680); inhibitor — IC50: 3.4 nM.
For MAP2K7 (Homo sapiens, UniProt O14733); inhibitor: IC50 read greater than 5000 nM.
The IC50 was 65 nM (ERBB4 (Homo sapiens, UniProt Q15303); inhibitor).
The IC50 was 3.3 ± 0.8 nM (BTK; no preincubation).
The IC50 was 7.6 nM (BMX (Homo sapiens, UniProt P51813); inhibitor).
ERBB2 (Homo sapiens, UniProt P04626); inhibitor — IC50: greater than 5000 nM.
BTK; preincubation 90 min — IC50: 1.5 ± 0.2 nM.

Series 2
SMILES: CC(C)(C)c1ccc(Oc2ccc3c(c2)OC(O)(C(=O)O)C(=O)N3Cc2ccccc2)cc1 (stereo not shown)
It gave 28.2% for inhibition (Arabidopsis thaliana; hypocotyl length; Col-0; 25.0 µg/mL, 7 days, seed germination, dark).
The inhibition was 22.8% (Arabidopsis thaliana; hypocotyl length; Col-0; 12.5 µg/mL, 7 days, seed germination, dark).
For Amaranthus retroflexus; fresh weight; 150 g ai/ha, post-emergence treatment: inhibition read 59.4% and 59% and 59.2%.
For Arabidopsis thaliana; root length; Col-0, seedlings; 6.25 µg/mL; relative to: water control: inhibition read 22.6%.
The inhibition was 48.6% (Arabidopsis thaliana; hypocotyl length; Col-0, seedlings; 100 µg/mL).
Arabidopsis thaliana; root length; Col-0, seedlings; 50 µg/mL — inhibition: 64.8%.
For Arabidopsis thaliana; root length; Col-0, seedlings; 25 µg/mL; relative to: water control: inhibition read 51.2%.
Arabidopsis thaliana; root length; Col-0, seedlings; 50 µg/mL; relative to: water control — inhibition: 64.8%.
The inhibition was 51.2% (Arabidopsis thaliana; root length; Col-0, seedlings; 25 µg/mL).
The inhibition was 11.8% and 12.3% and 13.1% (Glycine max; fresh weight; soil surface spray, 150 g ai/ha, 21 days, pre-emergence crop safety).
Avena fatua; fresh weight; 150 g ai/ha, pre-emergence treatment — inhibition: 78.3% and 70.9% and 72.5%.
Arabidopsis thaliana; hypocotyl length; Col-0, seedlings; 12.5 µg/mL — inhibition: 22.8%.
For Arabidopsis thaliana; hypocotyl length; Col-0; 100 µg/mL, 7 days, seed germination, dark: inhibition read 48.6%.

Series 3
Target: Membrane-associated tyrosine- and threonine-specific cdc2-inhibitory kinase (PKMYT1, Homo sapiens, UniProt Q99640)
Read-out: binding
Technique: HTRF
Concentration: 1.37 nM
Construct (Q99640 1-499): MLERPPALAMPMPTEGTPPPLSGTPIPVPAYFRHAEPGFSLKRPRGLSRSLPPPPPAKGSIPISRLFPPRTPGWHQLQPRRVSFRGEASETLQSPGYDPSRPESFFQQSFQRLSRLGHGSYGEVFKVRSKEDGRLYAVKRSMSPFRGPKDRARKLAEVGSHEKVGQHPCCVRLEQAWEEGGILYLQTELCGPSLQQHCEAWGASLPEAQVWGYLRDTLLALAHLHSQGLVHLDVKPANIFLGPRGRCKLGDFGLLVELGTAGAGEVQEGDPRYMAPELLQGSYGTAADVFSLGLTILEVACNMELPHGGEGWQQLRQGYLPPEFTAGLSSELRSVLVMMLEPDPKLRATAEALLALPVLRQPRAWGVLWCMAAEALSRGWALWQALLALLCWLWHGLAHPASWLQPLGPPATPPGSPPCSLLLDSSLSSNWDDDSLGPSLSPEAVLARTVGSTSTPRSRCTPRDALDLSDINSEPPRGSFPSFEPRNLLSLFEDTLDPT
For `Cc1ccc(O)c(C)c1-c1cnc2[nH]c(-c3cnc(N4CCC5(CC4)CC(N4CCN(c6ccc7c(c6)C(=O)N(C6CCC(=O)NC6=O)C7=O)CC4)CO5)nc3)cc2c1C#N` (mixture of isomers), the inhibition was 16.2% and 14.2%.
For `Cc1ccc(O)c(C)c1-c1cnc2[nH]c(-c3cnc(N4CCC(CN5CCN(c6c(F)cc(NC7CCC(=O)NC7=O)cc6F)CC5)CC4)nc3)cc2c1C#N` (racemic), the inhibition was -1.04% and 0.97%.
The inhibition of `Cc1ncc(-c2cc3c(N)c(-c4c(C)ccc(O)c4C)cnc3[nH]2)cn1` is reported as -9.85% and -6.68%.
`Cc1ccc(O)c(C)c1-c1cnc2[nH]c(-c3cnc(N4CCC(CN5CCN(c6ccc(NC7CCC(=O)NC7=O)c(F)c6)CC5)CC4)nc3)cc2c1C#N` (racemic) gave an inhibition of 14.2% and 13.9%.
`Cc1ccc(O)c(C)c1-c1cnc2[nH]c(-c3cnc(N4CCC5(CC4)CC(N4CCN(c6cc7c(cc6F)c(N6CCC(=O)NC6=O)nn7C)CC4)CO5)nc3)cc2c1C#N` (racemic) gave an inhibition of 15.8% and 16.2%.

Other studies, line by line
For `CCN1/C(=C/C=C2\CCCC(/C=C/C3=[N+](CC)c4ccccc4C3(C)C)=C2NCCCCCCCCN2CCC(Nc3nc4ccccc4n3Cc3ccc(F)cc3)CC2)C(C)(C)c2ccccc21`, the particle diameter was 745 nm (dynamic light scattering; PBS; pH 5.0).

Some of these lines once more (series 3):
For `Cc1ccc(O)c(C)c1-c1cnc2[nH]c(-c3cnc(N4CCC5(CC4)CC(N4CCN(c6ccc7c(c6)C(=O)N(C6CCC(=O)NC6=O)C7=O)CC4)CO5)nc3)cc2c1C#N` (mixture of isomers), the inhibition was 16.2% and 14.2%.
For `Cc1ccc(O)c(C)c1-c1cnc2[nH]c(-c3cnc(N4CCC(CN5CCN(c6c(F)cc(NC7CCC(=O)NC7=O)cc6F)CC5)CC4)nc3)cc2c1C#N` (racemic), the inhibition was -1.04% and 0.97%.
The inhibition of `Cc1ncc(-c2cc3c(N)c(-c4c(C)ccc(O)c4C)cnc3[nH]2)cn1` is reported as -9.85% and -6.68%.
